Published values of several laboratories.
Lines come from different studies, so protocols differ. Values joined by “and” are separate records of one study, mostly repeats; a detail may differ. ± marks the error that the study gave. In brackets after ≈: the same amount, converted by molar mass.

Molecule	test	test system	setting	how to read	measurement	result
CC1N=C(c2ccccc2F)c2cc(Nc3ccc(O)cc3)ccc2NC1=O (stereo not drawn)	shake flask	PBS	24 h, pH 7.4		aqueous solubility	198 µM (≈ 74.3 µg/mL)
Cc1cc(C(C#N)c2ccc(Cl)cc2)c(Cl)cc1NC(=O)c1cc(I)cc(I)c1O (stereo not drawn)	HPLC, non-compartmental	Corriedale lambs, parasitized, plasma	subcutaneous, 5 mg/kg, together with: moxidectin 0.2 mg/kg subcutaneous		MRT	31 ± 6.92 days
CC(=O)N[C@H](CCCCNC(=O)C(C)F)C(=O)N[C@@H](CS)C(=O)N[C@@H](CS)C(=O)N[C@@H](CCC(=O)O)C(=O)N[C@@H](Cc1c[nH]cn1)C(=O)N[C@H](Cc1ccccc1)C(=O)N[C@@H](CCCNC(=N)N)C(=O)N[C@@H](Cc1c[nH]c2ccccc12)C(=O)N[C@@H](CS)C(=O)N[C@@H](CCCNC(=N)N)C(=O)N1CCC[C@H]1C(=O)N[C@H](C(N)=O)C(C)C (stereo partly drawn) [fluorine-18 labelled]		C57BL/6 mice, male, B16-F10 tumour, kidney	intravenous, 1 h		tissue uptake	8.82 ± 0.76 %ID/g
icatibant		mouse	intraplantar, 5 µL, 10 mg/mL, 15 min		paw thickness increase	40.7 ± 2.1%
O=C(c1cccc(-c2nc3ccccc3[nH]2)n1)N1CCN(C(=O)c2cccc(-c3nc4ccccc4[nH]3)n2)CC1	LC-MS/MS	rat, plasma	oral, 80 mg/kg		apparent volume of distribution	3.38 L/kg
O[C@H]1CCCN[C@@H]1CCCn1cnc2c(Cl)c(Cl)ccc21		healthy human volunteers, plasma	oral, 50 mg, day 1, multiple ascending dose		Vz/F	902 L
CN[C@H](CC(C)C)C(=O)N[C@H]1C(=O)N[C@@H](CC(N)=O)C(=O)N[C@H]2C(=O)N[C@H]3C(=O)N[C@H](C(=O)N[C@H](C(=O)O)c4cc(O)cc(O)c4-c4cc3ccc4O)[C@H](O)c3ccc(c(Cl)c3)Oc3cc2cc(c3O[C@@H]2O[C@H](CO)[C@@H](O)[C@H](O)[C@H]2O[C@H]2C[C@](C)(N)[C@H](O)[C@H](C)O2)Oc2ccc(cc2Cl)[C@H]1O		Sprague-Dawley rat, male, urine	concentration not given, day 2, bolus dosing	reference: humanized infusion group	urinary clusterin difference	-3100 ng/24 h
O=c1[nH]c(Cc2ccccn2)nc2c1cnn2C1CCOCC1		healthy men, extensive metabolizers, plasma	oral, 200 mg single dose, tablet, geometric mean		AUC(0-inf)	3.92 µM·h
CCCCCOc1ccc(-c2cc(-c3ccc(C(=O)N[C@H]4C[C@@H](O)[C@@H](O)NC(=O)[C@@H]5[C@@H](O)[C@@H](C)CN5C(=O)[C@H]([C@H](O)CC(N)=O)NC(=O)[C@H]([C@H](O)[C@@H](O)c5ccc(O)c(OS(=O)(=O)O)c5)NC(=O)[C@@H]5C[C@@H](O)CN5C(=O)[C@H]([C@@H](C)O)NC4=O)cc3)no2)cc1		young infants, plasma	intravenous, 7 and 10 mg/kg/day pooled, day 4, median, repeat dosing		Cmax	23400 ng/mL
CC[C@H](C)[C@H](NC(=O)[C@H](CCC(=O)O)NC(=O)[C@@H](NC(=O)[C@H](CC(=O)O)NC(=O)[C@H](CC(C)C)NC(=O)[C@H](C)NC(=O)[C@H](CCSC)NC(=O)[C@H](CCCCN)NC(=O)[C@@H](NC(=O)[C@H](CC(N)=O)NC(=O)[C@H](CC(C)C)NC(=O)[C@H](CC(C)C)NC(=O)[C@H](CC(=O)O)NC(=O)[C@H](CCC(N)=O)NC(=O)[C@H](Cc1ccc(O)cc1)NC(=O)[C@H](CCC(=O)O)NC(=O)[C@H](CCCNC(=N)N)NC(=O)[C@H](CCC(=O)O)NC(=O)[C@H](CC(C)C)NC(=O)[C@H](CCCNC(=N)N)NC(=O)[C@H](C)NC(=O)[C@H](CC(C)C)NC(=O)[C@H](CCC(=O)O)NC(=O)[C@@H](N)CCC(=O)O)C(C)C)[C@@H](C)CC)C(=O)N[C@@H](C)C(=O)N[C@H](C(=O)N[C@@H](Cc1ccc(O)cc1)C(=O)N[C@@H](CCCNC(=N)N)C(=O)N[C@@H](CCCCN)C(=O)N[C@@H](CC(C)C)C(=O)N[C@@H](CC(C)C)C(=O)N[C@@H](CCC(=O)O)C(=O)N[C@@H](C)C(=O)N[C@@H](CC(C)C)C(=O)N[C@@H](CCC(=O)O)C(=O)N[C@@H](CO)C(=O)N[C@@H](CCCNC(=N)N)C(=O)O)[C@@H](C)O	circular dichroism	Tris buffer	pH 8.0, 20 °C		helical content	~50%
Cn1c(Cn2ccc(C(F)(F)F)c(Oc3cc(Cl)cc(C#N)c3)c2=O)n[nH]c1=O		healthy adults	oral, 100 mg once daily, alone or coadministered, together with: islatravir 2.25 mg once daily		participants with drug-related adverse events	40%
CSCC[C@@H]1NC(=O)[C@H](CC(=O)O)NC(=O)CNC(=O)[C@H](CCCNC(=N)N)NC(=O)[C@H](C)NC(=O)[C@H](CCC(=O)O)NC(=O)[C@H](CCCNC(=N)N)NC(=O)[C@@H]2CSSC[C@@H]3NC(=O)[C@H](CO)NC(=O)[C@H]([C@@H](C)O)NC(=O)[C@@H]4CCCN4C(=O)[C@H](C)NC(=O)[C@H](Cc4c[nH]c5ccccc45)NC(=O)[C@H](CC(=O)O)NC(=O)CNC(=O)[C@H](CCCNC(=N)N)NC(=O)CNC(=O)[C@H](CCC(N)=O)NC(=O)[C@@H]4CCCN4C(=O)[C@@H](NC(=O)CNC(=O)C(C)F)CSSC[C@H](NC(=O)CNC(=O)[C@H](C)NC(=O)[C@H](CC(C)C)NC(=O)[C@H](CSSC[C@@H](C(=O)NCC(N)=O)NC(=O)[C@H]([C@@H](C)O)NC(=O)[C@H](CCCNC(=N)N)NC(=O)[C@@H]4CCCN4C1=O)NC(=O)[C@H](CC(=O)O)NC(=O)[C@H](CO)NC(=O)[C@H](CC(=O)O)NC(=O)[C@H](CCC(N)=O)NC(=O)[C@H](CO)NC3=O)C(=O)N[C@@H](C(C)C)C(=O)N2 (stereo partly drawn) [fluorine-18 labelled]		nude mice U-87 MG xenograft, heart	intravenous, 1 h		tissue uptake	0.3 ± 0.06 %ID/g
COc1ccc(C(CN(C)C)C2(O)CCCCC2)cc1 (stereo not drawn)		human, plasma	oral, 225 mg/day, day 15		AUCtau	2900 ng·h/mL
Oc1ccc2ccc3cccc4ccc1c2c34	HPLC-fluorescence	Wistar rat, male, liver	oral, 4 mg/kg PY, 24 h		tissue concentration	1300 ± 200 ng/g
C[C@H]1CNCCc2ccc(Cl)cc21		male Sprague-Dawley rat, plasma	subcutaneous, 1 mg/kg, single dose		Cmax	34.4 ng/mL
COc1ccc(C[C@@H]2NC(=O)[C@H]([C@@H](C)O)NC(=O)[C@@H]3[C@@H]4CCN3C(=O)[C@@H]3Cc5cn(c6ccc(F)cc56)CCCCCCN(Cc5ccc(cc5)CCNC(=O)[C@]5(C)CCCN5C2=O)C(=O)CCC(=O)N[C@@H](C)C(=O)N[C@H](CNC(=O)CCCCC[N+](C)(C)C)C(=O)N[C@@H](Cc2cccc(c2)CNC(=O)CO4)C(=O)N3)cc1		fasted healthy men, plasma	oral, 10 mg single dose, 24 h, with 1800 mg Labrasol, median		plasma concentration	3.9 nM
CN[C@@](C)(C[18F])C(=O)O		mouse, pancreas	30 min, tumour-bearing		tracer uptake	54 %ID/g
[123I]c1cncc(OC[C@@H]2CCN2)c1	SPECT	human, head of caudate nucleus	intravenous bolus, 8.6 mCi	reference: tissue over plasma	tissue/plasma ratio	18.1
O=c1[nH]c(=O)[nH]c(=O)[nH]1	LC-MS/MS	pregnant female rat, serum	oral, 1000 mg/kg/day, 10 days		serum concentration	55800 ng/mL and 80500 ng/mL and 23000 ng/mL and 314000 ng/mL and 15300 ng/mL
CC[C@@]1(O)C(=O)OCc2c1cc1n(c2=O)Cc2cc3c(CN(C)C)c(O)ccc3nc2-1		human patients, plasma	oral, 2.5 mg daily for 5 days, MTD arm, daily dosing, together with: pazopanib	reference: with pazopanib over alone	Cmax ratio	1.86
CCN(CC)CCCC(C)Nc1ccnc2cc(Cl)ccc12 (stereo not drawn)		male athymic BALB/c nude mice, xenograft, serum	intraperitoneal, 60 mg/kg every other day, 2 weeks, together with: sulforaphane 5 mg/kg		ALT activity	6.27 ± 1.35 U/L
Clc1ccc(-c2c(Cl)ccc(Cl)c2Cl)c(Cl)c1	enantioselective GC	pooled human liver microsomes 0.5 mg/mL	5 µM, 2 h, 37 °C, together with: NADPH 0.5 mM		enantiomeric fraction	0.53
O=C(CC(=O)c1ccccc1)c1ccccc1		Sprague-Dawley rat, male, plasma	oral, 250 mg/kg, regular emulsion		absolute bioavailability	7.38 ± 1.66%
CCCCCCCCCC(=O)N[C@@H](Cc1c[nH]c2ccccc12)C(=O)N[C@H](CC(N)=O)C(=O)N[C@@H](CC(=O)O)C(=O)N[C@@H]1C(=O)NCC(=O)N[C@@H](CCCN)C(=O)N[C@@H](CC(=O)O)C(=O)N[C@H](C)C(=O)N[C@@H](CC(=O)O)C(=O)NCC(=O)N[C@H](CO)C(=O)N[C@@H]([C@H](C)CC(=O)O)C(=O)N[C@@H](CC(=O)c2ccccc2N)C(=O)O[C@@H]1C		male Wistar rat, plasma	subcutaneous, 50 mg/kg, single dose		Vss	0.14 ± 0.02 L/kg

For quick reference, copied from above:
Molecule	test	test system	setting	how to read	measurement	result
CN[C@H](CC(C)C)C(=O)N[C@H]1C(=O)N[C@@H](CC(N)=O)C(=O)N[C@H]2C(=O)N[C@H]3C(=O)N[C@H](C(=O)N[C@H](C(=O)O)c4cc(O)cc(O)c4-c4cc3ccc4O)[C@H](O)c3ccc(c(Cl)c3)Oc3cc2cc(c3O[C@@H]2O[C@H](CO)[C@@H](O)[C@H](O)[C@H]2O[C@H]2C[C@](C)(N)[C@H](O)[C@H](C)O2)Oc2ccc(cc2Cl)[C@H]1O		Sprague-Dawley rat, male, urine	concentration not given, day 2, bolus dosing	reference: humanized infusion group	urinary clusterin difference	-3100 ng/24 h
O=c1[nH]c(Cc2ccccn2)nc2c1cnn2C1CCOCC1		healthy men, extensive metabolizers, plasma	oral, 200 mg single dose, tablet, geometric mean		AUC(0-inf)	3.92 µM·h
